# Measured values from different studies.
# Lines come from different studies, so protocols differ. ± marks the error that the study gave.
# Oprd1: Delta-type opioid receptor (Oprd1, Mus musculus, UniProt P32300)
# Tmem97: Sigma intracellular receptor 2 (Tmem97, Rattus norvegicus, UniProt Q5U3Y7)
# OPRL1: Nociceptin receptor (OPRL1, Homo sapiens, UniProt P41146)
# Sigma-2 receptor/TMEM97: Sigma-2 receptor/TMEM97 (Cavia porcellus, UniProt H0V073)
# SIGMAR1: Sigma non-opioid intracellular receptor 1 (SIGMAR1, Cavia porcellus, UniProt Q60492)
Compound,target,test,system,setting,Ki
"COc1cc2c(cc1OCCCF)CCN1CC(CC(C)C)C(C3CO3)CC21 (single isomer, unassigned; (+))","Synaptic vesicular amine transporter (Slc18a2, Rattus norvegicus, UniProt Q01827)",binding,rat striatal homogenate,with: [3H](±)-tetrabenazine,8e-05 ± 1e-05 µM
C=C(C)[C@H](CC=C(C)C)Cc1c(O)cc(OC)c2c1O[C@H](c1ccc(O)cc1O)CC2=O,"Amine oxidase [flavin-containing] B (MAOB, Homo sapiens, UniProt P27338)","enzyme activity, inhibitor",,,12.3 µM
Nc1nc(Cl)nc2c1ncn2[C@H]1C[C@H](O)[C@@H](CO)O1,"Adenosine receptor A2a (ADORA2A, Homo sapiens, UniProt P29274)","ligand displacement, radioligand",,cell membranes,15.1 µM
CC(C)C[C@H](NC(=O)[C@H](CC(C)C)NC(=O)[C@H](CC(=O)O)NC(=O)[C@H](CC(C)C)NC(=O)[C@@H](NC(=O)[C@H](CCC(=O)O)NC(=O)[C@H](CO)NC(=O)[C@H](Cc1c[nH]c2ccccc12)NC(=O)[C@H](C)NC(=O)[C@@H](N)[C@@H](C)O)C(C)C)C(=O)N[C@@H](CCCNC(=N)N)C(=O)N[C@@H](CCCNC(=N)N)C(=O)NCC(=O)NCC(=O)NCC(=O)N[C@@H](Cc1ccc(C(=O)c2ccccc2)cc1)C(=O)N[C@@H](CCCCNC(=O)CCCC[C@@H]1SC[C@@H]2NC(=O)N[C@@H]21)C(N)=O,"ATP2B4 (Homo sapiens, UniProt P23634)","Ca2+-Mg2+-ATPase activity, inhibitor",erythrocyte ghosts,"human erythrocyte, with: Ca2+",5.1 ± 0.8 µM
O=C(O)c1cc(NS(=O)(=O)c2ccccn2)cc([C@H]2CCN[C@@H]2C(=O)O)c1 (racemic),"Glutamate receptor ionotropic, kainate 1 (Rattus norvegicus, UniProt P22756)","ligand displacement, radioligand",,cell membranes,27.6 µM
Nc1ccccc1C(=O)O,mushroom tyrosinase,"monophenolase activity, inhibitor",,"pH 6.8, 20 °C, with: p-coumaric acid substrate",5.15 µM
O=C(NCCCc1c[nH]cn1)NC(=O)c1ccccc1,"Histamine H4 receptor (HRH4, Homo sapiens, UniProt Q9H3N8)","ligand displacement, radioligand",,cell membranes,5.25 µM
CCCCOC(=O)c1ccccc1C(=O)OCc1ccccc1,"Sulfotransferase 2A1 (SULT2A1, Homo sapiens, UniProt Q06520)",inhibitor,human liver cytosol,"pH 7.0, with: [3H]DHEA 2.5 to 20 nM",7 ± 0.8 µM
O=C(/C=C/c1ccoc1)N[C@@H]1CC[C@@]2(O)[C@H]3Cc4cccc5c4[C@@]2(CCN3CC2CC2)[C@H]1O5,Oprd1,"binding, radioligand displacement",,with: [3H]diprenorphine,0.34 ± 0.096 µM
CCCN(CCC1(O)CC(NS(=O)(=O)c2ccc(F)c(Cl)c2)C1)[C@H]1CCc2nc(N)sc2C1 (stereo in doubt),"D(3) dopamine receptor (Drd3, Rattus norvegicus, UniProt P19020)","ligand displacement, radioligand",,cell membranes,0.0023 µM
O=C(c1ccc(O)cc1)c1c(-c2ccc(O)cc2)sc2cc(O)ccc12,"Estrogen receptor (ESR1, Homo sapiens, UniProt P03372)","ligand displacement, radioligand",,,0.00067 µM
CC[C@H](C)CCCCC(=O)N[C@@H](CCN)C(=O)N[C@H](C(=O)N[C@@H](CCN)C(=O)N[C@H]1CCNC(=O)[C@H]([C@@H](C)O)NC(=O)[C@H](CCN)NC(=O)[C@H](CCN)NC(=O)[C@H](CC(C)C)NC(=O)[C@@H](CC(C)C)NC(=O)[C@H](CCN)NC1=O)[C@@H](C)O,lipopolysaccharide,"binding, displacement",Pseudomonas aeruginosa,,3.8 ± 0.1 µM
c1ccc(CCN2CCCCC2)cc1,Tmem97,radioligand binding,rat liver membranes,"with: [3H]DTG 5 nM, (+)-pentazocine 300 nM",0.0943 ± 0.0031 µM
CC(C)[C@@H](CN1CC[C@@](C)(c2cccc(O)c2)[C@@H](C)C1)NC(=O)[C@H]1Cc2ccc(O)cc2CN1,OPRL1,"ligand displacement, radioligand",,,0.0167 µM
O=C(CN(C1CCCCC1)C1CCCCC1)Nc1ccc(S(=O)(=O)c2ccc(NC(=O)CN(C3CCCCC3)C3CCCCC3)cc2)cc1,"Protease, with pVIc peptide (L3, Human adenovirus C serotype 2, UniProt P03252)","competitive inhibitor, Dixon plot",human adenovirus 2,,0.4 µM
CCCCN1C(=O)C(C=CC=CC=C2C(=O)N(c3ccc(S(=O)(=O)O)cc3)N=C2C)C(=O)N(CCCC)C1=O,"SLC4A1 (Homo sapiens, UniProt P02730)","chloride exchange, 36Cl flux, refers to: chloride-loaded transporter",,"0 °C, equilibrium binding",0.19 ± 0.06 µM
CCCCCCCC(=O)O[C@H]1/C(=C/C(=O)OC)C[C@H]2C[C@H]([C@@H](C)O)OC(=O)CCCC(=O)OCC(C)(C)[C@]1(O)O2,"Protein kinase C theta type (PRKCQ, Homo sapiens, UniProt Q04759)","ligand displacement, radioligand",,,0.283 µM
O=C(O)C[C@H]1CCN[C@@H]1C(=O)O,"Glutamate receptor ionotropic, kainate 2 (Grik2, Rattus norvegicus, UniProt P42260)","binding, radioligand displacement",Sf9 cells expressing homomeric receptor,with: [3H]kainate,2.2 µM
Nc1ncnc2c1ncn2[C@H]1C[C@H](O)[C@@H](COP(=O)(O)NP(=O)(O)OP(=O)(O)O)O1,"Deoxynucleoside triphosphate triphosphohydrolase SAMHD1 (SAMHD1, Homo sapiens, UniProt Q9Y3Z3)","enzyme activity, inhibitor",,,0.207 µM
O=C(/C=C/c1ccoc1)N[C@H]1CC[C@@]2(O)[C@H]3Cc4ccc(O)c5c4[C@@]2(CCN3CC2CC2)[C@H]1O5,"Mu-type opioid receptor (Oprm1, Mus musculus, UniProt P42866)","ligand displacement, radioligand",,,0.00123 µM
CC(C)[C@@H](CN1CCC(c2cccc(O)c2)CC1)NC(=O)[C@H]1Cc2ccccc2CN1,OPRL1,"ligand displacement, radioligand",,,0.0484 µM
N=C(N)NC(=O)c1ccc(C(=O)NCCCC[C@H](NC(=O)[C@H](Cc2c[nH]c3ccccc23)NC(=O)[C@H](CCCCN)NC(=O)CNC(=O)CCC(=O)N/N=C/c2ccc(/C=N/NC(=O)CCC(=O)NCC(=O)N[C@@H](CCCCN)C(=O)N[C@@H](Cc3c[nH]c4ccccc34)C(=O)N[C@@H](CCCCNC(=O)c3ccc(C(=O)NC(=N)N)[nH]3)C(N)=O)cc2)C(N)=O)[nH]1,"Tryptase beta-2 (TPSB2, Homo sapiens, UniProt P20231)",non-competitive inhibitor,,,0.078 ± 0.0031 µM
NC(=O)CC[C@H](N)C(=O)O,"anandamide membrane transporter, mouse","[3H]anandamide uptake, non-competitive inhibitor",mouse brain synaptosomes,,0.97 ± 0.08 µM
O=C(O)C1CCCC1,"putA, PRODH domain (Escherichia coli, UniProt P09546)",competitive inhibitor,,"pH 7.5, room temperature, with: L-proline",6300 ± 700 µM
COc1cc(O)c2c(O)c3c(=O)cc(C)oc3cc2c1,"Amine oxidase [flavin-containing] A (MAOA, Homo sapiens, UniProt P21397)",inhibitor,,"competitive, free enzyme",4.92 µM
Cc1cc(N(C)CCN(C)C)cc(C)c1OCC(=O)N[C@@H](Cc1ccccc1)[C@H](O)C(=O)N1CSC(C)(C)[C@H]1C(=O)N[C@H]1c2ccccc2C[C@H]1O,"Plasmepsin I (PMI, Plasmodium falciparum, UniProt P39898)","enzyme activity, inhibitor, fluorescence",,pH 5,0.0126 µM
CCCC[C@]1(C(=O)O)C[C@H]1[C@H](N)C(=O)O.Cl,"kainate receptor, rat",[3H]kainate displacement,cortical synaptosomes,,> 100 µM
c1ccc(CCN2CCCCC2)cc1,Tmem97,"ligand displacement, radioligand",,,0.138 µM
O=C(O)c1cccc(Cc2ccc(F)cc2)c1,"Envelope glycoprotein gp160, gp41 hydrophobic pocket (env, Human immunodeficiency virus type 1 group M subtype B, UniProt P04578)",,HIV-1,,550 ± 50 µM
CCNC(=O)[C@H]1O[C@@H](n2cnc3c(N)nc(NCCc4ccc(CCC(=O)NCCN)cc4)nc32)[C@H](O)[C@@H]1O,"Adenosine receptor A1 (ADORA1, Homo sapiens, UniProt P30542)","ligand displacement, radioligand",,cell membranes,0.168 µM
CN(C)CCN(C)CCc1ccc(Cl)c(Cl)c1,Sigma-2 receptor/TMEM97,binding,guinea pig brain,"sigma-2 site, high-affinity site, with: 3 nM [3H]DTG, (+)-pentazocine",0.0475 µM
CCCC[C@H](NC=O)C(=O)N[C@@H](CC(C)C)C(=O)N[C@@H](Cc1ccccc1)C(=O)O,"fMet-Leu-Phe receptor (FPR1, Homo sapiens, UniProt P21462)","binding, inhibitor",,,0.067 ± 0.016 µM
C[C@@H]1O[C@@H](O[C@H]2C[C@@H](O)[C@]3(CO)[C@H]4[C@H](O)C[C@]5(C)[C@@H](C6=CC(=O)OC6)CC[C@]5(O)[C@@H]4CC[C@]3(O)C2)[C@H](O)[C@H](O)[C@H]1O,"Sodium/potassium-transporting ATPase subunit alpha-1 (ATP1A1, Sus scrofa, UniProt P05024)",enzyme activity,purified pig kidney enzyme,"10 min preincubation, 37 °C, no DMSO",1.26 ± 0.04 µM
CC1(C)Oc2cc(CNC3C4CC5CC(C4)CC3C5)cc(O)c2[C@@H]2C[C@@H](O)CC[C@H]21 (stereo partly drawn),"Cannabinoid receptor 1 (Cnr1, Rattus norvegicus, UniProt P20272)",,,,no binding
Oc1ccc2c(c1O)C[C@@H](c1ccccc1)[C@@H]1CCNC[C@@H]21,other brain receptors of panel,"binding, PDSP radioligand screen",,,> 1 µM
CN1CCN(CCc2ccc(Cl)c(Cl)c2)CC1,Sigma-2 receptor/TMEM97,binding,guinea pig brain,"low-affinity site, two-site fit, with: [3H]DTG 3 nM with (+)-pentazocine 200 nM",53.7 µM
CCCCCCCCCCCCCCC[C@@H](O)[C@@H](N)CO,SIGMAR1,"ligand displacement, radioligand",,cell membranes,35 µM
COP(=O)(O)C(C)=O,"1-deoxy-D-xylulose-5-phosphate synthase (dxs, Escherichia coli, UniProt P77488, H299A)","enzyme activity, inhibitor",,"enzyme 3 µM, with: D-GAP 500 µM, pyruvate 2 mM",1080 µM
CN(C(=O)/C=C/c1ccoc1)[C@H]1CC[C@@]2(O)[C@H]3Cc4cccc5c4[C@@]2(CCN3CC2CC2)[C@H]1O5,Oprd1,"binding, radioligand displacement",,with: [3H]diprenorphine,0.116 ± 0.024 µM
CSC[C@H]1O[C@@H](n2cnc3c2N=CNC[C@H]3O)C[C@@H]1O,"MTA/SAH deaminase (Pseudomonas aeruginosa, UniProt Q9HZ64)",inhibitor,,"pH 7.4, 25 °C, with: MTA 100 µM",8e-06 ± 4e-07 µM
CCCCCCCCCCCCC/C=C/[C@H](O)[C@@H](N)CO,SIGMAR1,"ligand displacement, radioligand",,,0.02 µM
CC[C@H]1O[C@]2(C)[C@H](OC(C)=O)[C@@]1(C)O[C@@H](/C=C/C=C/C=C/c1oc(=O)cc(OC)c1C)[C@@H]2O,"atpD, in F1Fo complex (Escherichia coli, UniProt P0ABB4)",ATP hydrolysis,Escherichia coli everted membranes,enzyme-substrate complex,0.29 ± 0.02 µM
